Published values collected from several papers.
A part holds a random share of what one study measured. Changes are numbered by the printed parent chain.

Series 1
Target: Sox-I, HMG box (Salpingoeca helianthica)
Technique: Spec-seq
Molecule type: double-stranded DNA, one strand shown
Matrix: in vitro
Concentration: not given
Notes: whole probe, mean of replicates
Baseline: not given
Reading: lower = stronger binding
Quantity: relative binding energy
All sequences stand within: GAGTCGTCTCGTCAGCAC … CCGTAGAGCACTCAGGTC
Construct (chain): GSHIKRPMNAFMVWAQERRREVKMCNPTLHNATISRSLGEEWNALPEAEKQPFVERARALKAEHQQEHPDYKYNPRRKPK
CATCACG: 0.721 ln ratio
GTAAGTT: 0.637 ln ratio
CATATCC: 0.671 ln ratio
CATATTA: 0.246 ln ratio
CATCGAC: 0.825 ln ratio
TTTCGTT: 0.662 ln ratio
TATCGTT: 0.0927 ln ratio
GCAGGTT: 1.03 ln ratio

Series 2
Target: RNA binding protein fox-1 homolog 2, RRM domain, GST-SBP tag (RBFOX2, Homo sapiens, UniProt O43251-10, residues 100-194)
Technique: RNA Bind-n-Seq
Molecule type: RNA
Matrix: in vitro
Concentration: 365 nM
Notes: natural RNA segment, single round, ends assumed
Baseline: no-protein control
Reading: higher = stronger binding
Quantity: RBNS enrichment (R)
Construct (chain): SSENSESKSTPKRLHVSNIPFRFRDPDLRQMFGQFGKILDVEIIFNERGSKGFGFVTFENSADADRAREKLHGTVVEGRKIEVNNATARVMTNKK
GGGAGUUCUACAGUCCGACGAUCCUUUGUGUGGUGCUGAUGCUGUGCGCAGUAGGAUUCUUGGAUGACUCUCCAUCAGUCACAGACUCCCCCUGUUGCAAAGUGUCAGGCUGACUCGACAGUCACCGUAAAAUUGGAAUUCUCGGGUGCCAA: 0.548
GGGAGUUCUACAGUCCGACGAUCGCCUACUGGGGGGUCCCCAAACUCAGUCCUGGUACCACCUCAACUGUGACAAUCAGCAAAGCCUCGCCUGGGCCCUCAUCUGGGAUGAUGGGGGGAACGGACAGAUAUUCUGGAAUUCUCGGGUGCCAA: 0.318
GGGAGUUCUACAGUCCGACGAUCAAGGAAGUAUCGAAUUUACAUUAGUUUUUUUCAUACCCUUUUGAACUUUGCAACUUCCGUAAUUAGGAACCUGUUUCUUACAGCUUUUCUAUGCUAAACUUUGUUCUGUUUGGAAUUCUCGGGUGCCAA: 0.402
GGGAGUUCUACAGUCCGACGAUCGUACAUUUUAAAGGAUAAUGGUGAACAUUUUAAUGGGUUUCCCUUGCCCUUUCCAUAUUUAACCUAUUUCCACAUUCUCUCUCACUCACAUUUUCUCAGUGUGCCCUUCUUGGAAUUCUCGGGUGCCAA: 0.753
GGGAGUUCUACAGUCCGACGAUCCGUUUGGUACGUAUCAGUGAAUUAUUGGACAGUUAGCUUAUAACUUAUAGGCAGUCACUAUAAAUUAUAAUUGUGGGCACUAGCAAUAUACAUAACAGAAGAAACAACAAUGGAAUUCUCGGGUGCCAA: 0.5
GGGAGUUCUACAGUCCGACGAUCUAGGACUUCAAAGUGUGUCUGGGAUUUUUUUAUUAAAGAAAAAAAAUUUCUAGCUGUCCUUGCAGAAUUAUAGUGAAUACCAAAAUGGGGUUUUGCCCCAGGAGGCUCCUUGGAAUUCUCGGGUGCCAA: 0.368
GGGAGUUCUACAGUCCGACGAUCGUCACUUUGAAAUGUAACGAAUGGUACUACAACCAAUUCCAAGUUUUAAUUUUUAACACCAUGGCACCUUUUGCACAUAACAUGCUUUAGAUUAUAUAUUCCGCACUCAAUGGAAUUCUCGGGUGCCAA: 0.902
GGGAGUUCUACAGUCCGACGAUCUCUAUUGUAUUGUCUCACACAUGCUCUAUAUAAAUGGGAAAUGUUGAUUUUUUUGAUGAUAGACUAUAUACACAGGCUGUUCCCGUUAUGUAAGUCAGUUCUUCAGGCUCUGGAAUUCUCGGGUGCCAA: 0.334

Series 3
Target: Centromere-binding protein 1, full length, His-tagged (CBF1, Saccharomyces cerevisiae, UniProt P17106, residues 1-351)
Sequence of UniProt P17106 (whole entry, looked up): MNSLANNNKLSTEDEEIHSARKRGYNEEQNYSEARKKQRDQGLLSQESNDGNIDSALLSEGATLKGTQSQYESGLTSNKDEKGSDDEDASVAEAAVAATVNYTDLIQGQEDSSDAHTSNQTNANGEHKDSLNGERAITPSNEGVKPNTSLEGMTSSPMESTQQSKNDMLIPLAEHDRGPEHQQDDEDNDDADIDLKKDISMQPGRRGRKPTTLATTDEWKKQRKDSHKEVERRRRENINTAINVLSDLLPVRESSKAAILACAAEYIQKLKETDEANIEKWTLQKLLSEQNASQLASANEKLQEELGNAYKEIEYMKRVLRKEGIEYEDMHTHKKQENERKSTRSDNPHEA
Technique: competition protein-binding microarray
Molecule type: double-stranded DNA, one strand shown
Matrix: in vitro
Concentration: 2 µM
Notes: whole 60-bp probe, lowest competitor level
Together with: Pho4 competitor, 0.05 µM
Reading: higher = stronger binding
Quantity: fluorescence intensity
CTTCTGTAAATTTGGTCCGTGGGTGGACGCGCCCCGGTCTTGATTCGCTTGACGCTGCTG: 72.4 a.u.
ACTGTAGAAAGAGAAAGTGTGGTAAAACCAACCAATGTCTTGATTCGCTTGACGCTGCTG: 74.8 a.u.
TTGTAAGATTCTACTCCCGTGAAGATCCCAATCGCTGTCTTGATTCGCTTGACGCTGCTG: 64.2 a.u.
GAACTGCTTCGAAAACACGTGTTCCCCTCCGTTCCAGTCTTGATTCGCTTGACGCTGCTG: 1910 a.u.
GTCTTGTCTCATTGCTCTGTGGGTGTCCCCACTTCAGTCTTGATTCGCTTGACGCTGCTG: 73.1 a.u.
CAATTCGGCAAGAGGTGTTCTGCGCATCTGAATTATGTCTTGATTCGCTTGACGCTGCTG: 79.6 a.u.
TCATAGTTGACTGCCCATGTGGCTAATCTCAGTCTCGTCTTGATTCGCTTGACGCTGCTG: 82.1 a.u.
TTGGCTTAAATTTGTCACGTGAAGCTCTATTTTTTTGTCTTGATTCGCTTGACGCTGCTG: 6820 a.u.

Further values, each from its own experiment
Starting sequence: viral docking peptide; KKAKRRLFTISDS
KKAKRRLFTASDS [I10A]
normalised enrichment score (CCNB1, cyclin fold, Cln2 fusion (human); yeast growth competition, sequencing; yeast; weak parent motif; baseline: not given, higher = stronger binding): 0.536

For quick reference, copied from above (series 2):
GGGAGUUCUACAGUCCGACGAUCGUACAUUUUAAAGGAUAAUGGUGAACAUUUUAAUGGGUUUCCCUUGCCCUUUCCAUAUUUAACCUAUUUCCACAUUCUCUCUCACUCACAUUUUCUCAGUGUGCCCUUCUUGGAAUUCUCGGGUGCCAA: 0.753
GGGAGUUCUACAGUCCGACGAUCCGUUUGGUACGUAUCAGUGAAUUAUUGGACAGUUAGCUUAUAACUUAUAGGCAGUCACUAUAAAUUAUAAUUGUGGGCACUAGCAAUAUACAUAACAGAAGAAACAACAAUGGAAUUCUCGGGUGCCAA: 0.5
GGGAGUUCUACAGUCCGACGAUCUAGGACUUCAAAGUGUGUCUGGGAUUUUUUUAUUAAAGAAAAAAAAUUUCUAGCUGUCCUUGCAGAAUUAUAGUGAAUACCAAAAUGGGGUUUUGCCCCAGGAGGCUCCUUGGAAUUCUCGGGUGCCAA: 0.368
